# Experimental data of several laboratories.
# A part holds a random share of what one study measured. Changes are numbered by the printed parent chain.

# Set 1 — technique: protein binding microarray; form: double-stranded DNA, one strand shown; medium: in vitro; concentration: not given; baseline: not given; direction: higher = stronger binding
# Target: Histone acetyltransferase KAT6A, winged helix 2, GST fusion (KAT6A, Homo sapiens, UniProt Q92794, residues 85-181)
# Setting: 8-mer, flanks averaged, mean of 2 arrays, mostly near background
# Residues (chain): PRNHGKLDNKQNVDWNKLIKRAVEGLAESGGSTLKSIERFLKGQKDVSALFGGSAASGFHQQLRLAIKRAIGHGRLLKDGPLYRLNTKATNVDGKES
Oligonucleotide,E-score
AAGCCAAG,-0.00301
CTGGGGTC,-0.0286
GATCGGGC,0.115
TATGTGAA,-0.0428
TCTTAGCA,0.043
ACGCGGTC,0.125
GACCGTCC,0.056
AGCCACGC,0.0386
ACTCCGCA,-0.0949
CTTAAACC,-0.0832
CGACAAAC,0.0563
AAAGTCTA,-0.225
AGTGCGGA,0.298
TAAGATAA,-0.082
ACTTTGCA,0.121
ATATCATC,-0.00581
ACACTTTA,-0.209
TGTACAAA,0.0528
AAATCTAT,0.178
ATAACAAA,0.123
AACGAGTA,-0.13
CCATGATA,0.0118
ATAGCAGA,0.0787
CACAGTAG,-0.0752
ATCCGCAT,0.0979

# Set 2 — technique: DHFR PCA, deep sequencing; medium: yeast; with: (+)-ABA 17 µM; baseline: wild-type fitted maximum; direction: higher = stronger binding
# Target: ABI1, truncated, D143A, DHFR fusion (Arabidopsis thaliana)
# Setting: methotrexate growth selection, single substitutions
# Starting sequence: PYL1, truncated, DHFR fusion (Arabidopsis thaliana); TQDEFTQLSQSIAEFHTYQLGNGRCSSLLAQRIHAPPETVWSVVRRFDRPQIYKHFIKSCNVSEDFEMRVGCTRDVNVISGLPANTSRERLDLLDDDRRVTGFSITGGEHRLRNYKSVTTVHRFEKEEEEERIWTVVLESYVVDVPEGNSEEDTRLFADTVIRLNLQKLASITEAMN; partner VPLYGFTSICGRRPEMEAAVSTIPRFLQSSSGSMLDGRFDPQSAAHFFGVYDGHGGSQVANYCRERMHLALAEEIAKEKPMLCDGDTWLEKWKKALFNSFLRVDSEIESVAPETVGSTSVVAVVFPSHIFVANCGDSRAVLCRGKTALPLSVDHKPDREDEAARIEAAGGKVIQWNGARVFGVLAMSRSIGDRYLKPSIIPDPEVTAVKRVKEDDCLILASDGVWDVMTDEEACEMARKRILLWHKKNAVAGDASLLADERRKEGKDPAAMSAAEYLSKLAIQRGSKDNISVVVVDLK
Change,relative binding score [%]
D48Y,13.2
P146R,0.149
P146S,18.2
E128M,76.8
V70Y,7.15
H122V,12
E67K,82.7
R46C,63.9
V40E,-41.7
R163G,62.8
T6L,79
C60N,3.45

# Set 3 — technique: RNA Bind-n-Seq; form: RNA; medium: in vitro; concentration: 365 nM; baseline: no-protein control; direction: higher = stronger binding
# Target: RNA binding protein fox-1 homolog 2, RRM domain, GST-SBP tag (RBFOX2, Homo sapiens, UniProt O43251-10, residues 100-194)
# Setting: natural RNA segment, single round, ends assumed
# Target sequence (chain): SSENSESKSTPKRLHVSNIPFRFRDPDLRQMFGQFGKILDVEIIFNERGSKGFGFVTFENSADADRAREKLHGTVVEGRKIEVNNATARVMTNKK
Oligonucleotide,RBNS enrichment (R)
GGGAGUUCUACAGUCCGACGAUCUAUAUGGGGACUGGAUCCCAGUAAGGCUCACAAGGCUAAGGGGAACUUAAGUAUGGGAUACAGCACAUGGAUGCACCCCUCUGUGUGUCAGGCAUCCUCCAUGUGGACUCUGGAAUUCUCGGGUGCCAA,0.527
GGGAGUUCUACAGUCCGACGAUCUCUGCCUUUAUCUUGCCUCUGGCCUUAUAUUUCAUACUUUGUUCAAUAUGGCUGGAUAAUAAACACUCCUGGGUAGAGGAGGCCAGGAGCCUCACUGUCCCAAUUCCCAAUGGAAUUCUCGGGUGCCAA,0.22
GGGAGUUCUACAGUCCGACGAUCGAUGGCGCCCAGCCCAGCCCUAACUGCCAGCUGGCUGGGGUUGCGCCCCACUGCGCUGCUGACCUUCCUGCAGUUCCAGACACCUCCCACAAUAAAGAGCUCCUCCUCUGUGGAAUUCUCGGGUGCCAA,0.807
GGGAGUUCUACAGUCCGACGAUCAGGUGGCCAAGGAUGCUGGAGCUGAAUCAGACGCUGACAGUUCUUCAGGCAUUUCUAUUUCACAAUCGAAUUGAACACAUUGGCCAAAUAAAGUUGAAAUUUUACCACCUUGGAAUUCUCGGGUGCCAA,0.742
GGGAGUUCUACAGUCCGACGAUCGGGAGGUCGAUGAGCCUGUGCUGGCAUCCGCGGGCCCCACGCUUUGCCAACUCCUCCAGCCACAGGCAAGGCCACGGCUCCGGGCUGUUGCGCUCUAAGGGUUCUGUGAUUGGAAUUCUCGGGUGCCAA,0.449
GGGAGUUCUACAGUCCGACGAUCAACCUGGCCGUCUACACAGCCCUUCUGCAACCUCACGACCGGAUCAUGGGGCUGGACCUGCCCGAUGGGGGCCAGCUCACCCACGGCUACAUGUCUGACGUCAAGCGGAUUGGAAUUCUCGGGUGCCAA,0.687
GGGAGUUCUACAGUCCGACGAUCGUUGGCUCAUCAAACCUGGCAACCCUGUGGCCUGUCUGCCGGAGCUGACUGGAUCCACUCAUCAAUUCUUCGUCCCCACUACUAAGACUGGGCAUGUUUUGCUGGUGUGGUGGAAUUCUCGGGUGCCAA,0.3
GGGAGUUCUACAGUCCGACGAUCAGAGGUCGCCGUGGGAAAACAGCACAACAGCACCUCUUGUGUGUGUACUUUCUACCCCCGCCCCCAGUUGUUUUCAGUUAGUAUUUAUUCCUUGGAGUCUAUGAGACUGUUGGAAUUCUCGGGUGCCAA,0.719
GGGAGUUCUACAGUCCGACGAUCAUGAAGCAAACACAAUUGGUGACAAAGGUUGUCAAUCAUUUCUUCAAAAUUAUAAUGCAGUUCUAAUGGUCAGCAUAUUUUGAUAUUAAAUUUAAAGAUCACCUCUCUGCUGGAAUUCUCGGGUGCCAA,0.39
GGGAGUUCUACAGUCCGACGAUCUUGAGGGACCCAGACCAGGUGUCUGCAGUCAGCUCCUGAGACACAGCUGGCCGGCACAACAGGUGUUACAUCAGGGGUUUCCUGUGGCCGUUUGAACUUUGAGCAUUUAUUGGAAUUCUCGGGUGCCAA,1.85
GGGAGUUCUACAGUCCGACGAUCUUAGAUGUUUCGUUCAUUCACUCACUCAUUCAGUUACUCCUAAGACUUUUCAGUUUCAUAAGGAAGAGUGUUGCCUGAGGCCCUAGGGAAUAUUGGGGAAUAGAAGGGAUUGGAAUUCUCGGGUGCCAA,0.606
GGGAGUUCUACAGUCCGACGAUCUUAAAGCUACAUCAUGCUGUAGUGUUGGCAUUUUUAGUUAAUAGGGCAUUGUCUUCCUUGUAUAUGUUUGUCAUAUUUCAUUUCACCAAAUAAACACAUACUCAUUGUGAUGGAAUUCUCGGGUGCCAA,0.914

# Set 4 — technique: RNA Bind-n-Seq; form: RNA; medium: in vitro; concentration: not given; baseline: input RNA pool; direction: higher = stronger binding
# Target: RING finger protein unkempt homolog, zinc fingers 1-6, GST-SBP tag (UNK, Homo sapiens, UniProt Q9C0B0, residues 30-357)
# UniProt Q9C0B0, sequence (30-357, looked up): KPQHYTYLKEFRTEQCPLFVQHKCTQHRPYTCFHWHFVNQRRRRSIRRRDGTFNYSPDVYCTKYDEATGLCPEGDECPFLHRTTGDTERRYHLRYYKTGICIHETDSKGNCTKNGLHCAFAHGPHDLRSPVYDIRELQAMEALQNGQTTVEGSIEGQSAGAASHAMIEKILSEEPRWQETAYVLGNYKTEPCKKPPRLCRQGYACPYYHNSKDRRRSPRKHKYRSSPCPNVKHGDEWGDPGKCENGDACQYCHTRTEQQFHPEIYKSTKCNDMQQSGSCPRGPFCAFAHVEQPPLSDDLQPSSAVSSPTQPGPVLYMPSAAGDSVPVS
# Setting: RNA with constant flanks, human and mouse sites, ends assumed
Oligonucleotide,bound/input enrichment
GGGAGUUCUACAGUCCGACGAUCUGGUUUCUAACAGCUGAAGGCAAUGAAUGGCUACUUCAAGGACAGAUAGCAGCUGGAGAUAUAGAGAACAUUUCCAGUCAACCAACAAUUUCACUACAAAUUCCUGAUGAUUGCUUAUCACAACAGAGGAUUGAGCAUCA,0.21 ratio
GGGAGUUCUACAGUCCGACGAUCUAUGAAUUUGACAAGUUUUGGCUUGAGGAAGAGCCAGAAAGCAUUAUGUACUUCAACUUGUACAGAGAGAAGUUUCACGAGCGGAUCAAAGGACUCUUGAUGGAUUGCAAUGCUGUGCUCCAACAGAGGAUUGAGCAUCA,0.181 ratio
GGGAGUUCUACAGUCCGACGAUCUUAGGUUGGAUGCAUCACACUGUGGAUCUCCUGGGAGAUAAGGCCACCAAGGAAAGUUAUGCUAUUCAGUAUCUCCAGAAGUCCUUGGAAGCAGAUCCAAAUUCUGGCCAGUCCUGGUAUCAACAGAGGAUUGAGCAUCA,0.157 ratio
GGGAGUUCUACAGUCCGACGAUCGCGCGCCGCCAACCCGGUGCUGACUGGGUUACUUUUUUAAACACUAGGAAUGGUAAUUUCUACUCUUCUGGACUUCAAACUAAGAAGUUAAAGAGACUUCUCUGUAAAUAAACAAAUCUCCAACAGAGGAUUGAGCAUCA,0.732 ratio
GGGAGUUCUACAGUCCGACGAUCAAUAUGGAGUCAGUUUUUGACUAUAGUAUAAAUUCUGUACAUGAUGAGAAAAUGGAAGAGCAAACUGAAAUUCUUCAAAAUGGCUUCAAUCCUGAAGAAGAUAAAUGCAAUAACUGUGAUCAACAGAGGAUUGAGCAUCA,0.235 ratio
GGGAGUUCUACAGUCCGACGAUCGGAAUGGAUGCUCUUCCUUAUAUUGAUUUAAUUGACCCAGCUGAGAUUGAUCUCCUAUUAAUUAGUCAUUUCCAUUUGGAUCACUGUGGAGCUCUGCCCUGGUUUCUACAGAAGACAAGUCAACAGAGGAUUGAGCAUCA,1.05 ratio
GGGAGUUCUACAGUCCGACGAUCGGCAUUUCACCUGAAGAAAAAUUUGUUAUUACAACAACAAGUAGGAAAGAAAUUACCUGUGAUAAUUUUGAUGAAACUGUUAAAGAUGGAGUCACCUUAUACCUGCUACAGUCGGUCAAUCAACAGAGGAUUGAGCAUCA,0.38 ratio
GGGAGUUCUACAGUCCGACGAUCAAUAUGGCCAAACAGAUUGGAGCAGCUACUUAUAUCGAAUGCUCAGCUUUACAGUCGGAAAAUAGCGUCAGAGACAUUUUUCACGUUGCCACCUUGGCAUGUGUAAAUAAGACAAAUAAACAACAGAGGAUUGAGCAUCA,0.304 ratio
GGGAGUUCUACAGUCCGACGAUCGGCUCCACAGUUGGGAGGUAGCUUUGCAGUUUGGGGAGGACUGUUUUCCACGAUUGACUGCAGUAUGGUUCAAAUACGAGGCAAAGAAGACCCCUGGAACUCCAUCACUAGCGGUGCCUUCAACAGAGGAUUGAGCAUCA,0.504 ratio
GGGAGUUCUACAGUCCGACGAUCGUGCAGCAGGACACUAUCCUGGCCGAGGGCCUUCACUUCAGGAUCCCUUGGUUCCAGUACCCCAUUAUCUAUGACAUUCGGGCCAGACCUCGAAAAAUCUCCUCCCCUACAGGCUCCAAACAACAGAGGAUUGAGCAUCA,0.432 ratio
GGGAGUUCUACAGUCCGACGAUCCUAUGUAAAACGACAGCCUUACAUAGUUUCCUGUCAACACAAAUUUAGGAUAUAAUACAUUUUAGAAAUUUAUUAUUUUUCAAUUAUUUUUGGUUUUUUUACUACUUACCUUGUAAAAAUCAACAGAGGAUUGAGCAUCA,68.6 ratio

# For quick reference, copied from above (set 1):
Oligonucleotide,E-score
ACTCCGCA,-0.0949
ACGCGGTC,0.125
AAAGTCTA,-0.225
TCTTAGCA,0.043
ATAGCAGA,0.0787
AAGCCAAG,-0.00301
TATGTGAA,-0.0428
